Experimental data gathered from unrelated publications.
Compare with care: the assays were run in different laboratories. ± gives the spread as reported.

For `CCC(C(=O)Nc1sc(C(N)=O)c(C)c1C(=O)OC)c1ccc(F)cc1` (stereo not shown), the EC50 was about 10 µM (vaccinia virus; viral replication).
`CC1=C[C@]23C(=O)[C@@H](C=C(CO)[C@@H](O)[C@]2(O)[C@H]1O)[C@H]1[C@@H](C[C@H]3C)C1(C)C` has an EC50 of 0.02 µM (Severe acute respiratory syndrome coronavirus; pseudoparticle entry; Vero C1008; 48 h).
With `COc1c(C)c2c(c(O)c1C/C=C(\C)CCC(=O)O)C(=O)OC2` the EC50 was 1 ± 0.6 µM (Junin virus; viral replication, inhibitor; Vero, Candid #1).
The EC50 of `CC(N)C12CC3CC(CC(C3)C1)C2` (stereo not shown) is reported as 32 µg/mL (SARS coronavirus; FRhK-4; 72 h).
The EC50 of `Cn1cnc(Cn2c(=O)[nH]/c(=N\c3cc4cn(C)nc4cc3Cl)n(Cc3cc(F)c(F)cc3F)c2=O)n1` is reported as about 50 µM (canine coronavirus; viral replication, qRT-PCR; CRFK).
The EC50 of `O=C(Nc1ccc(N2CCC(F)(F)CC2)cc1)c1cc2occc2n1Cc1ccc(Cl)cc1` is reported as over 100 µM (Marburg virus; pseudovirus entry; A549).
`N#C[C@@]1(n2ccc(N)nc2=O)O[C@H](CO)[C@@H](O)[C@H]1O` gave an EC50 of over 20 µM (chikungunya virus; viral replication, cell-based).
For `CCOc1ncc(NC(=O)c2cc3occc3n2Cc2ccc(Cl)cc2)cc1F`, the EC50 was over 100 µM (Marburg virus; pseudovirus entry; A549).
With `Cc1c(-c2ccccc2)oc2c(C(=O)OC(C)(C)CN3CCCCC3)cccc2c1=O` the EC50 was over 100 µM (SARS-CoV-2; viral replication, GFP plate reader screen; cell-based).
The EC50 of `Cc1cc2nnn(-c3ccc(OC(C)C)cc3)c2cc1-c1ccc(OC(C)C)cc1` is reported as at most 0.004 µM (vesicular stomatitis virus; viral entry, inhibitor; pseudotyped with Machupo virus glycoprotein).
`Nc1ccn(C[C@@H](CO)OCP(=O)(O)O)c(=O)n1` has an EC50 of 22 µM (Vaccinia virus; viral replication; HEL).
`c1ccc(CN(CCN(Cc2ccccn2)Cc2ccccn2)Cc2ccccn2)nc1` has an EC50 of over 3.09 µM (SARS-CoV-2; viral replication, GFP plate reader screen; BetaCov/Belgium/GHB-03021/2020; cell-based).
The EC50 of `O=C(N1CCC2(CC1)CC(CN1CCCS1(=O)=O)CCO2)C1(c2ccccc2)CCCC1` (stereo not shown) is reported as 1.58 µM (Venezuelan equine encephalitis virus; viral replication).
For `NVLFSTVFPPTSFGP`, the responding donors was 7% (human CD4 T cells; AIM; peptide).
`Cc1nc(Nc2ccc(F)cc2)nc(N2CCc3ccccc3C2C)c1C` (stereo not shown) gave an EC50 of over 100 µM (SARS-CoV-2; viral replication, GFP plate reader screen; cell-based).
The EC50 of `O=C1c2c(O)c(=O)ccn2N([C@@H]2c3ccccc3SCc3c2ccc(F)c3F)[C@@H]2COCCN12` is reported as 0.00017 ± 2e-05 µM (Influenza A virus H5N1; viral replication, plaque reduction; A/duck/Bangladesh/31028/2016).
`Nc1ccn(C[C@@H](CO)OCP(=O)(O)O)c(=O)n1` gave an EC50 of 10 µM (vaccinia virus; viral replication; HEL).
`COc1ccc2[nH]c(C(O)c3ccc(Cl)cc3)c(CCNC(C)=O)c2c1` (stereo not shown) gave an EC50 of 0.631 µM (lentivirus, spike-pseudotyped, SARS-CoV-2; viral entry; HEK293).
`COc1ccc(C2(C(=O)N3CCC4(CC3)CC(CNS(C)(=O)=O)CCO4)CCCC2)cc1` (stereo not shown) has an EC50 of over 39.8 µM (Venezuelan equine encephalitis virus; viral replication).
With `CC(=O)c1ccc2c(c1)N(CCCN1CCN(CCO)CC1)c1ccccc1S2` the EC50 was over 100 µM (SARS-CoV-2; viral replication, GFP plate reader screen; cell-based).
With `S=c1[nH]nc(NCNc2n[nH]c(=S)s2)s1` the EC50 was 16 µg/mL (Xanthomonas oryzae pv. oryzae; bacterial growth).
The EC50 of `CC[C@H]1CN2CCc3cc(OC)c(OC)cc3[C@@H]2C[C@@H]1C[C@H]1NCCc2cc(OC)c(OC)cc21` is reported as 0.16 µM (Middle East respiratory syndrome-related coronavirus; pseudovirus entry; Huh7.5, spike-pseudotyped HIV-1; 48 h).
`TPCSFGGVSV`: “frequency of responding donors” 20 (AIM; peptide, CD8+ T cells from PBMC, human donors; HLA-B*07:02 restricted, unit not given; reference: positive over tested donors).
For `Cc1cc2ncn(-c3ccc(OC(C)C)cc3)c2cc1-c1ccc(OC(C)C)cc1`, the EC50 was at most 0.004 µM (vesicular stomatitis virus; viral entry, inhibitor; pseudotyped with Machupo virus glycoprotein).
`O=C(Nc1ccc(N2CCC3(CCC3)CC2)c(C(F)(F)F)c1)c1ccc(C(=O)N2C[C@H]3C[C@@H]2CO3)nc1` gave an EC50 of 1.92 ± 1.09 µM (Marburg virus Angola; viral replication; wild type).
`CCCCCCCCCCCCCCCCOCCCOP(=O)(O)CO[C@H](CO)Cn1ccc(N)nc1=O` gave an EC50 of 0.87 ± 0.1 µM (Monkeypox virus; viral replication; Vero).
With `CCC(C)n1ncn(-c2ccc(N3CCN(c4ccc(OCC5COC(Cn6cncn6)(c6ccc(Cl)cc6Cl)O5)cc4)CC3)cc2)c1=O` (stereo not shown) the EC50 was 1.54 ± 0.02 µM (PV2; viral replication; 72 h).
`CN(C)S(=O)(=O)NCC1CCOC2(CCN(C(=O)C3(c4ccccc4)CCCC3)CC2)C1` (stereo not shown) has an EC50 of 7.94 µM (Venezuelan equine encephalitis virus; viral replication).
`CO[C@H]1/C=C/O[C@@]2(C)Oc3c(C)c(O)c4c(O)c(c(/C=N/N5CCN(C6CCCC6)CC5)c(O)c4c3C2=O)NC(=O)/C(C)=C\C=C\[C@H](C)[C@H](O)[C@@H](C)[C@@H](O)[C@@H](C)[C@H](OC(C)=O)[C@@H]1C` has an EC50 of 0.466 µM (Yellow fever virus; viral replication; C6).
`NC(=O)c1nc(F)c[nH]c1=O` gave an EC50 of 10 µM (Mammarenavirus juninense; viral replication, measured: JUNV; HEK-293T).
The EC50 of `CC(C)Oc1ccc(-c2ccc3cnc(-c4ccc(OC(C)C)cc4)n3c2)cc1` is reported as over 0.02 µM (vesicular stomatitis virus; viral entry, inhibitor; pseudotyped with Lassa virus glycoprotein).
`CC(=O)[C@@]12O[C@](C)(c3ccccc3)O[C@@H]1C[C@H]1[C@@H]3CCC4=CC(=O)CC[C@]4(C)[C@H]3CC[C@@]12C` gave an EC50 of over 12.6 µM (SARS-CoV-2; viral replication, high-content imaging screen; cell-based).
The EC50 of `oseltamivir carboxylate` is reported as 9 µM (Influenza A virus H3N2; visual CPE score).
With `O=C(NN1C(=O)C2C3C=CC(C4CC34)C2C1=O)c1ccc(C(F)(F)F)cc1` (stereo not shown) the EC50 was 0.0028 ± 0.0015 µM (Monkeypox virus; viral replication; HEL 299).
With `CCN(CC)CCCC(C)Nc1c2ccc(Cl)cc2nc2ccc(OC)cc12` (stereo not shown) the EC50 was 0.98 µM (Zaire ebolavirus; viral replication; HeLa; 24 h).
With `CN(C)CCCN1c2ccccc2Sc2ccccc21` the EC50 was over 100 µM (SARS-CoV-2; viral replication, high-content imaging screen; cell-based).
For `N#Cc1c(Nc2ccc(F)cc2)n[nH]c1NS(=O)(=O)c1ccc2ccccc2c1`, the EC50 was over 25 µM (Japanese encephalitis virus; viral replication; Vero 76, SA-14).
For `CCN(CC)CCCNc1cc(OC)cc2cccnc12`, the EC50 was over 100 µM (SARS-CoV-2; viral replication, high-content imaging screen; BetaCov/Belgium/GHB-03021/2020; cell-based).
With `Nc1cc2nc[nH]c2c(=O)[nH]1` the EC50 was 1.6 ± 1.5 µM (Junin virus; viral replication, inhibitor; Vero, Candid #1).
`Cc1cc2ncc(-c3ccc(OC(C)(C)C)cc3)n2cc1-c1ccc(OC(C)C)cc1` has an EC50 of at most 0.004 µM (vesicular stomatitis virus; viral entry, inhibitor; pseudotyped with Lassa virus glycoprotein).
The EC50 of `CN(C)S(=O)(=O)NCC1CCOC2(CCN(C(=O)C3(c4ccccc4Cl)CCCC3)CC2)C1` (stereo not shown) is reported as 2 µM (Venezuelan equine encephalitis virus; viral replication).
With `O=C(NC1CN2CCC1CC2)c1cc(Cl)cc2c1OC1CCCCC21` (stereo not shown) the EC50 was over 25.1 µM (SARS-CoV-2; viral replication, high-content imaging screen; BetaCov/Belgium/GHB-03021/2020; cell-based).
For `O=c1ccn([C@@H]2O[C@](F)(CO)[C@@H](O)[C@H]2O)c(=O)[nH]1`, the EC50 was 0.11 ± 0.09 µM (Junin virus; viral replication; HeLa, Romero).
`Cc1cc2ncn(-c3ccc(OC(C)(C)C)cc3)c2cc1-c1ccc(OC(C)(C)O)cc1` has an EC50 of at most 0.004 µM (vesicular stomatitis virus; viral entry, inhibitor; pseudotyped with Junin virus glycoprotein).
The EC50 of `CN(C)S(=O)(=O)NCC1CCOC2(CCN(C(=O)C3(c4cccc(C(F)(F)F)c4)CCCC3)CC2)C1` (stereo not shown) is reported as over 39.8 µM (Venezuelan equine encephalitis virus; viral replication).
The EC50 of `NC(=O)c1ncn([C@@H]2O[C@H](CO)[C@@H](O)[C@H]2O)n1` is reported as 16 µM (Lyssavirus rabies; viral replication, measured: RABV; BHK-21).
For `CN(C)S(=O)(=O)NCC1CCOC2(CCN(C(=O)C3(c4ccccc4)CCCO3)CC2)C1` (stereo not shown), the EC50 was over 39.8 µM (Venezuelan equine encephalitis virus; viral replication).
With `O=C(N1CCC2(CC1)C[C@@H](CN1CCCCS1(=O)=O)CCO2)C1(c2ccccc2)CCCC1` the EC50 was over 32 µM (Influenza A virus H5N1; viral replication; MDCK).
With `O=C1CCCN1CC1CCOC2(CCN(C(=O)C3(c4ccccc4)CCCC3)CC2)C1` (stereo not shown) the EC50 was 3.98 µM (Venezuelan equine encephalitis virus; viral replication).
The EC50 of `Nc1nc(O)c2ncn(COC(CO)CO)c2n1` is reported as over 100 µM (vaccinia virus; viral replication; HEL).
With `CN(C)S(=O)(=O)N(C)CC1CCOC2(CCN(C(=O)C3(c4ccccc4)CCCC3)CC2)C1` (stereo not shown) the EC50 was 12.6 µM (Venezuelan equine encephalitis virus; viral replication).
With `Cc1cc(C)c2sc(NC(=O)c3cc4ccccc4o3)nc2n1` the EC50 was over 32 µM (Powassan virus; cytopathic effect, neutral red uptake; BHK-21, LB).

A few entries again:
For `CCN(CC)CCCNc1cc(OC)cc2cccnc12`, the EC50 was over 100 µM (SARS-CoV-2; viral replication, high-content imaging screen; BetaCov/Belgium/GHB-03021/2020; cell-based).
With `Nc1cc2nc[nH]c2c(=O)[nH]1` the EC50 was 1.6 ± 1.5 µM (Junin virus; viral replication, inhibitor; Vero, Candid #1).
`Cc1cc2ncc(-c3ccc(OC(C)(C)C)cc3)n2cc1-c1ccc(OC(C)C)cc1` has an EC50 of at most 0.004 µM (vesicular stomatitis virus; viral entry, inhibitor; pseudotyped with Lassa virus glycoprotein).
The EC50 of `CN(C)S(=O)(=O)NCC1CCOC2(CCN(C(=O)C3(c4ccccc4Cl)CCCC3)CC2)C1` (stereo not shown) is reported as 2 µM (Venezuelan equine encephalitis virus; viral replication).
With `O=C(NC1CN2CCC1CC2)c1cc(Cl)cc2c1OC1CCCCC21` (stereo not shown) the EC50 was over 25.1 µM (SARS-CoV-2; viral replication, high-content imaging screen; BetaCov/Belgium/GHB-03021/2020; cell-based).
For `O=c1ccn([C@@H]2O[C@](F)(CO)[C@@H](O)[C@H]2O)c(=O)[nH]1`, the EC50 was 0.11 ± 0.09 µM (Junin virus; viral replication; HeLa, Romero).
